Experimental data gathered from unrelated publications.
Each numbered part is a random draw from the data of one study; scales do not carry over between parts. Substitutions count along the parent as printed.

Block 1
Target: Histone acetyltransferase KAT6A, winged helix 2, GST fusion (KAT6A, Homo sapiens, UniProt Q92794, residues 85-181)
Method: protein binding microarray
Molecule type: double-stranded DNA, one strand shown
Sample: in vitro
Tested at: not given
Setting: 8-mer, flanks averaged, mean of 2 arrays, mostly near background
Reference: not given
Direction: higher = stronger binding
Quantity: E-score
Construct (chain): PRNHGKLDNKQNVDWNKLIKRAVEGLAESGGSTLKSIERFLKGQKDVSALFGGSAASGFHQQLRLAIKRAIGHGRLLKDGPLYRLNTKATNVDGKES
ATAGTCGA: 0.0646
CATGCATA: -0.149
ACTGGCCG: -0.0539
AAGACGTA: -0.0858
CGTAAGCC: -0.0173
GCAGTAAC: -0.121
GAAACCAA: 0.00856
AATATAGG: -0.00941
CGGATAAC: 0.072
TGATTGAA: -0.0602
CTAAGTAG: -0.0418
GACCTGCC: 0.141
GGGCCATA: 0.159
CTGCACAC: -0.0982
GATTGTTA: 0.00491
AAATCACT: 0.115
CACGAGGC: 0.185
GCCCGTTA: -0.0439
TGACAAAA: 0.0273
CCAATGGG: -0.0331
ATAATGCG: -0.106
CGATCTCC: 0.0552
ATGGAACG: -0.0833
GTTCTTCA: 0.0559
ACAGGACA: 0.143

Block 2
Target: CCNA2, cyclin fold, Cln2 fusion (human)
Method: yeast growth competition, sequencing
Sample: yeast
Setting: strong parent motif
Reference: not given
Direction: higher = stronger binding
Quantity: normalised enrichment score
Starting sequence: SCAPER docking peptide (human); SNARRSLNFGGST
L7R: 0.882
R5E: 0.547
F9E: 0.161
G10Y: 6.15
R5A L7A: 0.255
S12E: 6.13
F9W: 4.14
S1I: 5.84
T13R: 6.18
T13P: 5.98
N8E: 4.97
G10C: 5.29
S12V: 5.43
R5K: 5.35
T13H: 5.71
N8L: 4.27
S12I: 6.83
G10W: 6.24
N8C: 4.73
L7D: 1.1
F9Q: 0.639
F9V: 1.61
L7C: 0.917

Block 3
Target: UBE2G2 UBC core domain (UniProt P60604)
Method: yeast two-hybrid
Sample: yeast
Setting: mostly zero background
Reference: not given
Direction: higher = stronger interaction
Quantity: lacZ reporter activity
B1: CBLL1 RING domain (UniProt Q75N03); chain GEKDDTPVHFCDKCGLPIKIYGRMIPCKHVFCYDCAILHEKKGDKMCPGCSDPVQRIEQCT
B2: RNF115 RING domain (UniProt Q9Y4L5); chain TQEQVDMGLECPVCKEDYTVEEEVRQLPCNHFFHSSCIVPWLELHDTCPVCRKSLNGEDSTR
B3: NHLRC1 RING domain (UniProt Q6VVB1); chain MREAEISLLECKVCFEKFGHRQQRRPRNLSCGHVVCLACVAALAHPRTLALECPFCRRACRGCDTSD
B4: RFPL3 RING domain (UniProt O75679); chain MAALFQEASSCPVCSDYLEKPMSLECGCTVCLKCINSLQKEPHGEDLLCCCCSMVSQRNKIRP
B5: TRIM32 RING domain (UniProt Q13049); chain NLDALREVLECPICMESFTEEQLRPKLLHCGHTICRQCLEKLLASSINGVRCPFCSKITRITSLTQ
B6: TRIM34 RING domain (UniProt Q9BYJ4); chain ILLNVQEEVTCPICLELLTEPLSLDCGHSLCRACITVSNKEAVTSMGGKSSCPVCGISYSFEHLQA
Construct (chain): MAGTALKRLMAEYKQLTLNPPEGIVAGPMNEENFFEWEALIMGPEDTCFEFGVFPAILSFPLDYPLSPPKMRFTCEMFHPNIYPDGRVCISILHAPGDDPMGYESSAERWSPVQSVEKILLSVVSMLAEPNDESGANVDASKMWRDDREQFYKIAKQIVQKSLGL
B1 (CBLL1 RING domain): 0
EIKDYKARLTCPCCNMRKKDAVLTKCFHVFCFECVKTRYDTRQRKCPKCNAAFGANDFHR (RNF20 RING domain (UniProt Q5VTR2)): 0
B2 (RNF115 RING domain): 0
KITELNPHLMCALCGGYFIDATTIVECLHSFCKTCIVRYLETNKYCPMCDVQVHKTRPLL (PCGF2 RING domain (UniProt P35227)): 0
B3 (NHLRC1 RING domain): 0
B4 (RFPL3 RING domain): 0
B5 (TRIM32 RING domain): 0
B6 (TRIM34 RING domain): 0
VPADASPDSKCPICLDRFDNVSYLDRCLHKFCFRCVQEWSKNKAECPLCKQPFDSIFHSV (TOPORS RING domain (UniProt Q9NS56)): 2340
FLSKVEETFQCICCQELVFRPITTVCQHNVCKDCLDRSFRAQVFSCPACRYDLGRSYAMQ (UHRF1 RING domain (UniProt Q96T88)): 0
AAQLLEEKLTCAICLGLYQDPVTLPCGHNFCGACIRDWWDRCGKACPECREPFPDGAELR (TRIM65 RING domain (UniProt Q6PJ69)): 0
EDVLSKDAGECAICLEELQQGDTIARLPCLCIYHKGCIDEWFEVNRSCPEHPSD (ZNRF2 RING domain (UniProt Q8NHG8)): 0

Block 4
Target: MAFF, bZIP domain (human)
Method: DHFR protein complementation
Sample: yeast
Setting: single substitutions, most at no-binding floor
Reference: wild-type JUN-FOS pair
Direction: higher = stronger binding
Quantity: binding fitness
Starting sequence: JUN, bZIP domain (human); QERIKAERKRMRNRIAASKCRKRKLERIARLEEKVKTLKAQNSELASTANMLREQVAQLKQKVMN; partner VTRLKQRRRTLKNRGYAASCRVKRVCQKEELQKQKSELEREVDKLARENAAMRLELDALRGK
E44M: -1.46 natural log
S43M: -1.48 natural log
E54I: -1.52 natural log
A46S: -1.55 natural log
Q41P: -1.55 natural log
Q55R: -1.26 natural log
K36P: -1.52 natural log
T48E: -1.3 natural log
V35S: -1.32 natural log
E33L: -1.34 natural log
S47N: -1.45 natural log
M51H: -1.11 natural log
E54H: -1.41 natural log
L45Q: -1.45 natural log
A49Q: -1.49 natural log
I28G: -1.44 natural log
L45F: -1.56 natural log
Q55H: -1.43 natural log
L45P: -1.5 natural log

Block 5
Target: PABPC1L2, full length, GST fusion (mouse, UniProt A0ABA7IW68)
Method: RNAcompete
Molecule type: RNA
Sample: in vitro
Tested at: 20 nM
Setting: 7-mer, probes averaged, single round
Reference: mean of 7-mers
Direction: higher = stronger binding
Quantity: 7-mer Z-score
Residues (chain): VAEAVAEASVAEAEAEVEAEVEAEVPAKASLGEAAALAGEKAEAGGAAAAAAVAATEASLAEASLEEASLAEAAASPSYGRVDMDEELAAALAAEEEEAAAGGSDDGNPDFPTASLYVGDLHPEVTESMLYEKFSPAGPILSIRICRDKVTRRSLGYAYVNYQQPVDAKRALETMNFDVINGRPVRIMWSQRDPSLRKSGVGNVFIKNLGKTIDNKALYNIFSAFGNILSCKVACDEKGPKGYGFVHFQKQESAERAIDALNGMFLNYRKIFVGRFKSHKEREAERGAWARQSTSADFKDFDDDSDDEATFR
UACAAUC: -0.0192
AUGGAUC: -0.0772
GCCCCGA: -0.222
CGUUCGU: -0.441
CGAAGUG: -0.106
CGCAUCU: -0.318
AACGGCA: 0.169
CGAGAAC: -0.137
GAUCAUG: -0.119
CGCUCAG: -0.05
CCGUCAG: -0.313
UUUUACG: 0.0334
AGUCAAU: -0.354
CUUCAUC: -0.315
UCAGGGU: -0.0808
CAGAAAC: 0.914
UGACAAA: 1.15
UUGGGAG: 0.0533
UUGCCAA: 0.0279
GGAAGAU: -0.0428
